Results collected from several papers.
Numbered parts are unrelated; each lists some results of a single study.

Sample 1
Target: PABPC1L2, full length, GST fusion (mouse, UniProt A0ABA7IW68)
Technique: RNAcompete
Molecule type: RNA
Matrix: in vitro
Concentration: 20 nM
Notes: 7-mer, probes averaged, single round
Baseline: mean of 7-mers
Direction: higher = stronger binding
Quantity: 7-mer Z-score
Construct (chain): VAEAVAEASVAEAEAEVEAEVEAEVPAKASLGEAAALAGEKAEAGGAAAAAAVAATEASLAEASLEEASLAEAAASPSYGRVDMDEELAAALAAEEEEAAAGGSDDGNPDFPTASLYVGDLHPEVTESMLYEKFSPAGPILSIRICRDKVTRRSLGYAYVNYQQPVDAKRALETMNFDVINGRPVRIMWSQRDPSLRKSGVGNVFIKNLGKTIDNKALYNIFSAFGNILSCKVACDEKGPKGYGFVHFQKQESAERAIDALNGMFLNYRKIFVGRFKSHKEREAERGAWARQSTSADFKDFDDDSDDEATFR
CCGCGUU: -0.4
CUUGCUG: -0.463
UCCGUGC: -0.146
UGGACGG: 0.321
AAAGCGC: 0.93
AGUAUAU: -0.0681
CGCGGUC: -0.291
GUUAUAG: -0.191
ACCGUCG: -0.394
UCGUCCG: -0.34
GCCUGGG: -0.11
UGAUACA: -0.0264
GUGUCCA: -0.195
AUCGGGA: 0.095
AAGUAUG: 0.225
CGGUGUU: -0.0989

Sample 2
Target: RNA binding protein fox-1 homolog 2, RRM domain, GST-SBP tag (RBFOX2, Homo sapiens, UniProt O43251-10, residues 100-194)
Technique: RNA Bind-n-Seq
Molecule type: RNA
Matrix: in vitro
Concentration: 365 nM
Notes: natural RNA segment, single round, ends assumed
Baseline: no-protein control
Direction: higher = stronger binding
Quantity: RBNS enrichment (R)
Residues (chain): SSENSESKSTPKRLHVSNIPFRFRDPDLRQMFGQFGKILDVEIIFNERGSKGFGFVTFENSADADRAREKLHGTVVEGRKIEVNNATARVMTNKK
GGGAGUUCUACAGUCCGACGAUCUCUAGAGUGAGUCCCAGUUACAUCAAACAGUGACUUCCAGUUAUUCCCCAGUAAGUCUGAGUGGUUCCUUCAAGCUGGGUGUCUUUCCAGCCUUUGCCAGUCUAGCCCCAUGGAAUUCUCGGGUGCCAA: 0.256
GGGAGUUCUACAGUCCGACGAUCCUUUCUUCAGGACCUGCACUUAAUGUUUGAGGCUGUCUCUCCAGUCCCUCUCAGCAGGAGGGGUAAUGGUAGAUACAGCCUCCAUACAUCUCUUUCUCCCCUUGUUUACCUGGAAUUCUCGGGUGCCAA: 0.192
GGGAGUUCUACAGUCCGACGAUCCUGAAGCUGAUGGGCUGCGAACAUGGACUGAGCUUGUGGUGUGCUUUGCAGGAGAACUUGGAAGCAGAGUUCACCAGUGAGCUCAGGUGUCUCAAAGAAGGGUGGAAGUUUGGAAUUCUCGGGUGCCAA: 1.04
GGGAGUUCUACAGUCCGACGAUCCUCCCACUCUGGCUCCUUGUUCUCUGGCAAACCGUAGCGUGGCUGCCAGCAUCCUGUAGCGCGGAUAGCUGCUUCCAUGGCCACAGGCCUGAACCGGUGUGUAUUUGGGGUGGAAUUCUCGGGUGCCAA: 0.303
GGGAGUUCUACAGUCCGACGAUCCUGUAAGACCCCAGCUUUUCCUGGAAGAUGGGACUCUGGGGUGUGUGGUGCUCACCAGAGUCAGGCCACCCACUGGGCUCGGCAGGAGAUAGGGAGCCCCAUCACCUGACUGGAAUUCUCGGGUGCCAA: 0.413
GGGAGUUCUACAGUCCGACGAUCAGUUUUCAAAUUCAAUUAAGAUAACUAGAAUUGGAUUAUGGUGUAAAAAUAAAAAAAAAAUUUAUUCACAUAAGUUUCAAGACUGCUCUGUCCCUCACAUGUACACAUACUGGAAUUCUCGGGUGCCAA: 0.613
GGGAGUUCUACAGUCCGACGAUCUGCAGCUGGGCCUCUCUAUACCCCUGGAUGAACAGCUUGCUCAGGCCCCAGGGUGGCUGCCUCGGCCCUCCCAGCUCUUACACUCAGCUCCAGUGGCUUCUCCUUUCUGUUGGAAUUCUCGGGUGCCAA: 0.502
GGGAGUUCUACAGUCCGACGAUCAGGGACUUGGGUGGGUACUUGGGUGAGGAUCCCUGAAGGCCUUCAACCCGAGAAAACAAACCCAGGUUGGCGACUGCAACAGGAACUUGGAGUGGAGAGGAAAAGCAUCAUGGAAUUCUCGGGUGCCAA: 1.55

Sample 3
Target: Histone acetyltransferase KAT6A, both winged helices, GST fusion (KAT6A, Homo sapiens, UniProt Q92794, residues 1-181)
Technique: protein binding microarray
Molecule type: double-stranded DNA, one strand shown
Matrix: in vitro
Concentration: not given
Notes: 8-mer, flanks averaged, mean of 2 arrays, mostly near background
Baseline: not given
Direction: higher = stronger binding
Quantity: E-score
Residues (chain): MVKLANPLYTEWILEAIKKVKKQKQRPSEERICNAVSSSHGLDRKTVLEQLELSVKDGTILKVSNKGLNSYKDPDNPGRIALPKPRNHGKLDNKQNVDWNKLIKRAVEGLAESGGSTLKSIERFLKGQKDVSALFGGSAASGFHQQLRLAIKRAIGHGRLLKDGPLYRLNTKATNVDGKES
ACGCGGCT: 0.318
CAAGTGCC: -0.0391
CAGCGCTG: 0.344
GCATTGGC: 0.021
AATAGCCA: -0.234
CCAAGGAG: -0.177
AAATCGAG: -0.125
ACTCGTAA: 0.0454
CTTTTCTC: -0.2
CAGCTTGA: -0.0699
ACAAGTCC: -0.0496
AAACCGTA: 0.132
CTTCAGCA: -0.213
GGAACCCC: 0.0687
AATCCGGT: 0.0604
ACGAGAGT: -0.174
AACCCATT: -0.0869
GCACATCA: 0.0538
ACGAGACC: -0.0726
CTACTCTA: -0.134
CCTGCCGC: 0.172
GTCCTGGA: -0.037
GAGCACCA: -0.171
TGGGATAA: -0.177
ATGCGGTC: 0.122

Sample 4
Target: Sal-like protein 4, full length isoform A (SALL4, Homo sapiens, UniProt Q9UJQ4, residues 1-1053)
Sequence of UniProt Q9UJQ4 (whole entry, looked up): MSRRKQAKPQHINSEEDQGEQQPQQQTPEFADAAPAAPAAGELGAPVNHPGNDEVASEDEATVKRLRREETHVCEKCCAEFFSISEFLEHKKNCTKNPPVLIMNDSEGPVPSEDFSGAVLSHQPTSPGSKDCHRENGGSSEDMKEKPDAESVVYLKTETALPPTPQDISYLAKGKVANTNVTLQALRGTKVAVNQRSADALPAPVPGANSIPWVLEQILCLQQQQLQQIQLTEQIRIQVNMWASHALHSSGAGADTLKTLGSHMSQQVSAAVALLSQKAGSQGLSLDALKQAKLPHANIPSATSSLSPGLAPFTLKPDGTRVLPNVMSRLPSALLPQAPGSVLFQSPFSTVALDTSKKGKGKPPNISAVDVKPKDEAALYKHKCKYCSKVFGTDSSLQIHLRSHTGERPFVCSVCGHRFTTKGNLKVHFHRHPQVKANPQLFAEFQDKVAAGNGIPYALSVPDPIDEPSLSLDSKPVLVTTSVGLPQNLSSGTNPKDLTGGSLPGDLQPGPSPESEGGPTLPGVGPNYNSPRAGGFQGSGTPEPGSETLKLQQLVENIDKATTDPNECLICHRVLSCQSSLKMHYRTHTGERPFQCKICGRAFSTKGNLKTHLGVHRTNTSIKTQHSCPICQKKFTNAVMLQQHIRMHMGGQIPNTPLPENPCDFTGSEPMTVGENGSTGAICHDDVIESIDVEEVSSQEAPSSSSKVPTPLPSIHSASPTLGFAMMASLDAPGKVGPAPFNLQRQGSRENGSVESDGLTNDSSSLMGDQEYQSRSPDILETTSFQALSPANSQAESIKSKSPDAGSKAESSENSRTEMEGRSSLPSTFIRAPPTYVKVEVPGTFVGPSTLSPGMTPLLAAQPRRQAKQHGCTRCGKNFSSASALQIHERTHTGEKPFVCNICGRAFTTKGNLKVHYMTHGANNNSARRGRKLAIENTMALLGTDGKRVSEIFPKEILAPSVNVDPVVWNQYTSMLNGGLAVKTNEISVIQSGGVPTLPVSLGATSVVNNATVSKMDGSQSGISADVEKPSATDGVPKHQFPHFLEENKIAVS
Technique: universal PBM
Molecule type: double-stranded DNA, one strand shown
Matrix: in vitro
Concentration: 600 nM
Notes: 8-mer, flanks averaged, mean of replicates
Direction: higher = stronger binding
Quantity: E-score
CAAACCTA: 0.0317
ACGAGGTG: -0.0312
GCCCTCTA: -0.228
ACAAGTGG: 0.0782
CGATCCGC: -0.258
AGCGGCTA: -0.066
CGCCTCAC: -0.243
GGCGATAC: -0.104
ACTTGCAC: -0.0373
GCATCAAA: 0.171
CGTAATGC: 0.0724
ACAGATAA: 0.222
ACTGGCAC: -0.254
GCCAACAA: -0.0184
AAATCAGA: 0.134
AGAGGCTA: -0.0607
CGAACAAC: 0.216
AAGGGGGG: -0.37
AGTCGCGG: -0.3
ATAACTCG: 0.32
CCCTCAAA: -0.0225
GATGAGCC: -0.28
GAATCTTA: 0.17
ATAACGCA: 0.238
CTGCAGGC: -0.25

A few entries again (sample 2):
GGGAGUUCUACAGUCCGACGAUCUCUAGAGUGAGUCCCAGUUACAUCAAACAGUGACUUCCAGUUAUUCCCCAGUAAGUCUGAGUGGUUCCUUCAAGCUGGGUGUCUUUCCAGCCUUUGCCAGUCUAGCCCCAUGGAAUUCUCGGGUGCCAA: 0.256
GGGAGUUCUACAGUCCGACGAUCAGGGACUUGGGUGGGUACUUGGGUGAGGAUCCCUGAAGGCCUUCAACCCGAGAAAACAAACCCAGGUUGGCGACUGCAACAGGAACUUGGAGUGGAGAGGAAAAGCAUCAUGGAAUUCUCGGGUGCCAA: 1.55
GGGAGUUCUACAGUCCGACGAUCUGCAGCUGGGCCUCUCUAUACCCCUGGAUGAACAGCUUGCUCAGGCCCCAGGGUGGCUGCCUCGGCCCUCCCAGCUCUUACACUCAGCUCCAGUGGCUUCUCCUUUCUGUUGGAAUUCUCGGGUGCCAA: 0.502
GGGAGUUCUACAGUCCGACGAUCCUGAAGCUGAUGGGCUGCGAACAUGGACUGAGCUUGUGGUGUGCUUUGCAGGAGAACUUGGAAGCAGAGUUCACCAGUGAGCUCAGGUGUCUCAAAGAAGGGUGGAAGUUUGGAAUUCUCGGGUGCCAA: 1.04
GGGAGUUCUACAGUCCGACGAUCAGUUUUCAAAUUCAAUUAAGAUAACUAGAAUUGGAUUAUGGUGUAAAAAUAAAAAAAAAAUUUAUUCACAUAAGUUUCAAGACUGCUCUGUCCCUCACAUGUACACAUACUGGAAUUCUCGGGUGCCAA: 0.613
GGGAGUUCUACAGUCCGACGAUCCUGUAAGACCCCAGCUUUUCCUGGAAGAUGGGACUCUGGGGUGUGUGGUGCUCACCAGAGUCAGGCCACCCACUGGGCUCGGCAGGAGAUAGGGAGCCCCAUCACCUGACUGGAAUUCUCGGGUGCCAA: 0.413
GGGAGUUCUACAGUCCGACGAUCCUUUCUUCAGGACCUGCACUUAAUGUUUGAGGCUGUCUCUCCAGUCCCUCUCAGCAGGAGGGGUAAUGGUAGAUACAGCCUCCAUACAUCUCUUUCUCCCCUUGUUUACCUGGAAUUCUCGGGUGCCAA: 0.192
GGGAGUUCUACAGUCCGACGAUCCUCCCACUCUGGCUCCUUGUUCUCUGGCAAACCGUAGCGUGGCUGCCAGCAUCCUGUAGCGCGGAUAGCUGCUUCCAUGGCCACAGGCCUGAACCGGUGUGUAUUUGGGGUGGAAUUCUCGGGUGCCAA: 0.303
